{"data": "Assay results from different studies", "target": "Myosin light chain kinase 2, skeletal/cardiac muscle (MYLK2, Homo sapiens, UniProt Q9H1R3)", "note": "Compare with care: the assays were run in different laboratories. Several values in a cell are separate wells, animals, samples, runs or records."}
{"SMILES": "NC(=O)C[C@H]1CCc2sc3ncnc(O[C@H]4CC[C@H](N5CCOCC5)CC4)c3c21", "effect on": "enzyme activity", "mode": "inhibitor", "concentration": "10 µM", "measurement": "inhibition", "value": "2%"}
{"SMILES": "C=CC(=O)Nc1cccc(-c2cnc3[nH]cc(C(=O)NC(C)(C)C)c3n2)c1", "effect on": "kinase activity", "concentration": "0.1 µM", "measurement": "inhibition", "value": "10% and -2%"}
{"SMILES": "CCN1CCN(Cc2ccc(C(=O)Nc3ccc(C)c(NCc4cnc5[nH]ccc5c4OC)c3)cc2C(F)(F)F)CC1", "effect on": "binding", "technique": "competition with immobilised ligand", "concentration": "1 µM", "measurement": "remaining binding", "value": "13%"}
{"SMILES": "Cc1cnc2nc1Nc1cccc(c1)COC/C=C/COCc1cc(ccc1OCCN1CCOCC1)N2", "effect on": "binding", "concentration": "0.1 µM", "measurement": "remaining binding", "value": "100%"}
{"SMILES": "COC(=O)[C@@]1(C)C=C(C(=O)Nc2cccc(C(=O)Nc3ccc(Nc4nccc(-c5cccnc5)n4)c(C)c3)c2)C(=O)CC1", "effect on": "enzyme activity", "mode": "inhibitor", "technique": "radiometric", "concentration": "1 µM", "measurement": "remaining activity", "value": "87%"}
{"SMILES": "O=C(Cc1ccc(OCc2ccccc2)cc1)NC1(C(=O)O)CCN(C(=O)c2ccc(-c3cccc(Cl)c3)cc2)CC1", "effect on": "enzyme activity", "mode": "inhibitor", "concentration": "10 µM", "measurement": "activity vs control", "value": "103%"}
{"SMILES": "COc1cc(Nc2nc(C)cc(-c3cnn4nc(OC)ccc34)n2)cc(C(F)(F)F)c1", "mode": "inhibitor", "concentration": "1 µM", "relative to": "control", "measurement": "remaining activity", "value": "100%"}
{"SMILES": "CN1CC[C@@H](COc2cnc(C#N)cc2-c2ccn3nc(NC(=O)C4CC4)cc3c2)C1", "effect on": "enzyme activity", "mode": "inhibitor", "concentration": "1 µM", "measurement": "inhibition", "value": "6%"}
{"SMILES": "COCC12C(=O)NC3C4(C(OC)CC1O)C1CC5(O)C(OC)C(O)C(OC(C)=O)(C1C5OC(=O)c1ccccc1)C3(O)C(OC)C24 (stereo not shown)", "effect on": "kinase activity", "mode": "inhibitor", "technique": "ProQinase kinase profiling", "concentration": "25 µM", "relative to": "control", "measurement": "remaining activity", "value": "86% and 90%"}
{"SMILES": "C=CC(=O)N1CCCC(n2c(=O)c3ncccc3n(Cc3ccc(Oc4ccccc4)cc3)c2=O)C1 (stereo not shown)", "effect on": "cell-free assay", "technique": "competition with immobilised ligand", "concentration": "1 µM", "measurement": "remaining binding", "value": "93%"}
{"SMILES": "CC(C)=CC1OC(C)(C)C2C=C3C(=O)C(Cl)=CC(O)C3C3C(O)C4OC4C(=O)C132 (stereo not shown)", "effect on": "cell-free assay", "technique": "competition with immobilised ligand", "concentration": "10 µM", "measurement": "remaining binding", "value": "94%"}
{"SMILES": "CNC1C[S+]2CC[S+]3CC[S+](C1)[Ru-4]321([N]=C=S)[n]2c3ccc(OC)cc3c3c4c(c5cc(F)c[n+]1c5c32)C(=O)NC4=O (stereo not shown)", "technique": "KinomeScan", "concentration": "0.1 µM", "relative to": "untreated", "measurement": "remaining binding", "value": "85%"}
{"SMILES": "CNC(=O)C1CCN(c2cc(C)c(F)cc2NC(=O)c2ccc(-c3cc(O)ccc3C)c(C)c2)CC1", "effect on": "binding", "technique": "competition with immobilised ligand", "concentration": "1 µM", "measurement": "remaining binding", "value": "99%"}
